Results pooled from the literature.
Each numbered part is a random draw from the data of one study; scales do not carry over between parts.

Set 1
Target: Histone acetyltransferase KAT6A, winged helix 2, GST fusion (KAT6A, Homo sapiens, UniProt Q92794, residues 85-181)
Technique: protein binding microarray
Molecule type: double-stranded DNA, one strand shown
Sample: in vitro
Tested at: not given
Setting: 8-mer, flanks averaged, mean of 2 arrays, mostly near background
Relative to: not given
Direction: higher = stronger binding
Residues (chain): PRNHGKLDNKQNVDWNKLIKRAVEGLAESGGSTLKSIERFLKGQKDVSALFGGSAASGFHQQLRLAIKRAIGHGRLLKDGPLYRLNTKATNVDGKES
Oligonucleotide	E-score
AGGCAGTA	-0.0173
AGGGCCCT	-0.11
AATCATCG	-0.0234
CGCATGGA	0.0614
GGCACGCA	0.172
AAGCACGG	-0.0399
CAACTGTG	-0.0175
GAATTATA	-0.0118
AGACGAAC	0.0795
GCTATCCA	-0.0335
AAGAGCCG	-0.0195
AAGCTCCC	0.0278
GTCGGTGA	-0.0878
CCCATTAC	-0.225
GATCCAAA	0.144
CCCGGCCC	0.142
GCTCCCAC	0.102
ATCTCCTA	-0.214
ACGGTCTC	-0.0869

Set 2
Target: Fragile X messenger ribonucleoprotein 1, C-terminal low-complexity region (Fmr1, Mus musculus, UniProt P35922)
Technique: RNA Bind-n-Seq
Molecule type: RNA
Sample: in vitro
Tested at: 200 nM
Setting: whole 134-nt RNA, ends assumed
With: 150 mM KCl
Relative to: input library
Direction: higher = stronger binding
All sequences stand within: GGGAGUUCUACAGUCCGACGAUC … UGGAAUUCUCGGGUGUCAAGG
Oligonucleotide	log2 enrichment
UCCUCAAGUCCUGUGCUACACAUCGUAUGUACCGAAUCGGUGGUGGGUGGGAAAGUAUUAUGUUACGCCGUUCGGAUCUGCACUUCCAGC	0.169
ACCAUGCAGGUGGGCAUCUUUGGGAAGUGGGGCAAGGGGGGGAUAAGGAGGGGGGUAACACUUUGGGAACAGGUGGUCCCAGGUCGUUUC	0.337
UGGCCCUGGUGGCAUGCGGGGAGGAAGAGGUGGCCUCAUGGAUCGUGGUGGUCCCGGUGGAAUGUUCAGAGGUGGCCGUGGUGGACACAG	-0.194
UGGGAGGUGGAUGUUGUUUAUUUUUUUAGCUCAUUUCCAGGGGUGGGAAUUUUUUUUUAAUAUGUGUCAUGAAUAAAGUUGUUUUUGAAA	0.204
UAACUUUAGAGGAGGAUCUGAUGGAUAUGGCAGUGGACGUGGAUUUGGGGAUGGCUAGAAUGGGUAUGGAGGAGGACCUGGAGGUGGCAA	0.261
CAAGUCCUGUGCUACACAUCGUAUGUACCGAAUCGGCCCGGGCCCGGGGCCCGGGGAAAGUAUUAUGUUACGCCGUUCGGAUCUGCACUU	-0.816
UUGACCGGAGCGGCCGUCACUUUGGUACAAUCCUCAAUUACCUGCGGGAUGGGUCUGUGCCACUGCCGGAGAGUACGAGAGAACUGGGGG	-1.1
UCCUGUGCUACACAUCGUAUGUACCGAAUCGGGAAAAAAGGAAAAAAGGAAAAAAGGGGAAAGUAUUAUGUUACGCCGUUCGGAUCUGCA	-0.56
CCCAUGCAGGUGGGCAUCUUUGGGAAGUGGGGCAAGGGGGGGAUAGGGAGGGGGGUAACACUUUGGGAACAGGUGGUCCCAGGUCGUUUC	0.655
GUCCUGUGCUACACAUCGUAUGUACCGAAUCGGUUUUUUUGGUUUUUGGAAAAAAAGGAAAGUAUUAUGUUACGCCGUUCGGAUCUGCAC	-0.834
AGUCCUGUGCUACACAUCGUAUGUACCGAAUCGGGGAAAAGGGAAAAGGGAAAAGGGGAAAGUAUUAUGUUACGCCGUUCGGAUCUGCAC	0.481
UGGCCCUGGUGGCAUGCGGGGAGGAAGAGGUGGCCUCAUGGAUCGUGGUGGUUCCGGUGGAAUGUUCAGAGGUGGCCGUGGUGGAGACAG	0.139
AAGUCCUGUGCUACACAUCGUAUGUACCGAAUCGGGUUUGGGAAAAAAAGGGUGGGAAAGUAUUAUGUUACGCCGUUCGGAUCUGCACUU	0.861
AGUCCUGUGCUACACAUCGUAUGUACCGAAUCAAACCCCCAAAUUUUUAAAUUUAAAAAAGUAUUAUGUUACGCCGUUCGGAUCUGCACU	0.142

Set 3
Target: Prothrombin, mature alpha-thrombin (F2, Homo sapiens, UniProt P00734)
Technique: aptamer microarray, sandwich
Molecule type: DNA with 2'F-ANA
Sample: in vitro
Tested at: 200 nM
Setting: whole 15-mer aptamer, many near background
With: Cy3 exosite-II aptamer, 400 nM
Direction: higher = stronger binding
Oligonucleotide: GGTTGGTGTGGTTGG
Modification	mean fluorescence intensity
2'F-ANA at 1 4 6 7 9 13 14 15	48.3 a.u.
2'F-ANA at 3 4 7 11 14	360 a.u.
2'F-ANA at 2 3 4 6 7 8 9 13	388 a.u.
2'F-ANA at 4 5 6 7 9 10 11	81.5 a.u.
2'F-ANA at 1 2 8 9 10 12 13 15	68.4 a.u.
2'F-ANA at 1 3 4 7 8 9 10 13	59.5 a.u.
2'F-ANA at 1 2 6 7 9 10 12 13 14	46.9 a.u.
2'F-ANA at 1 2 3 5 6 9 10 12 13 14	47.1 a.u.
2'F-ANA at 2 4 9 11 13 14 15	77.4 a.u.
2'F-ANA at 5 7 9 10 11 12 13	50.7 a.u.
2'F-ANA at 2 6 7 9 11 12 13	413 a.u.
2'F-ANA at 2 3 7 9 11 12 13 15	860 a.u.
2'F-ANA at 2 4 9 10 11 13 14 15	80.9 a.u.
2'F-ANA at 1 2 3 4 5 6 11 14 15	66.3 a.u.
2'F-ANA at 3 4 5 6 7 10 14	54.2 a.u.
2'F-ANA at 4 5 6 7 8	82.1 a.u.
2'F-ANA at 1 2 5 7 9 10 11 14	44.7 a.u.
2'F-ANA at 3 4 5 7 9 11 12 15	157 a.u.
2'F-ANA at 1 2 4 6 8 11 12 14	207 a.u.
2'F-ANA at 1 4 9 11	113 a.u.
2'F-ANA at 2 3 5 8 9 11 12 14 15	64.9 a.u.
2'F-ANA at 2 4 5 7 11 13 14	47.2 a.u.
2'F-ANA at 1 2 3 8 10 11 15	69.2 a.u.
2'F-ANA at 1 5 6 13 14	43 a.u.
2'F-ANA at 2 5 7 8 11 13 14	55.2 a.u.

Set 4
Target: RNA binding protein fox-1 homolog 2, RRM domain, GST-SBP tag (RBFOX2, Homo sapiens, UniProt O43251-10, residues 100-194)
Technique: RNA Bind-n-Seq
Molecule type: RNA
Sample: in vitro
Tested at: 365 nM
Setting: natural RNA segment, single round, ends assumed
Relative to: no-protein control
Direction: higher = stronger binding
All sequences stand within: GGGAGUUCUACAGUCCGACGAUC … UGGAAUUCUCGGGUGCCAA
Construct (chain): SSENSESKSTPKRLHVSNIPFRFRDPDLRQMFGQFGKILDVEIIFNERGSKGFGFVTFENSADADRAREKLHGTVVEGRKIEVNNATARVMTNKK
Oligonucleotide	RBNS enrichment (R)
CCCCCUCUCAGCAGCCCACCGGGUCCCUCCAGGCUGCUGCCCGUGCGUGGUCUUUCUCCUCCUUUUCAAAGCAAUAGCCGCCGGGUCUGCAAAGCCCUGUCAGACAGACU	0.279
CAGCCUUGGGAAAGGGGGACUCUUAGCUCUGUUGGUAUCACCGGGCCAUCUGGAAUGCAAGGUGAGACUGGCCAGCCGGUCUGACUCUGAUCCCAGGUGACUGGCUCUUG	0.28
GUCUCUAUCCUCUGUGGCCUUCAGCUAAUUUCUGCUCCCCUGAGAUUCGUCCUUCAGCCCCAUCAUGUGCUUUGGGAUGAGUGUAAAUAAAACGGGGCUGUGGCUUGGGA	0.542
UUUCUGUGCACUUAACAAUGGAACCCAAACAGAAGAGAAUAAAGCCUUGAUACCAAAAUUGGGAAAGAACAUGUGUCCAUUUGGACCAAACGUUGUUGGUUUUUAAAAAA	1.43
UCUAGAUGUAUGGGCAGGGCUGCACCAAGGCCUGGGCAUGCUUCCUCAGGGUAUCAAAGGAGCCCUUUGCUGUGAACCUGGCUAGGAAUGCAAGAUGACUCAGAGUAUAG	1.87
CUGAGGAAGUGUGGCUUGCUAGUCUGUUACGUUAACAUGCUUUUCUAAAAUUGCUUCACGUGUUAAUUCAUUUACUCCUGCAUUCAUUGACUGUUUUUGUUCUUUUCCAU	0.577
CUGUGACCGCUACACAAAUUGUUUAUCAUCUUUGGGUCUCUAUUGCCUUCUUUAUAAAAUAAGUGUAAGUUGUUCAGCCUGCCUCACAGGGCUGUUGUGAGGAAAUAAAA	0.738
GACCAUCUCAGGGUGGAGCAUUCUGUCUAAGAGAAGAAAGAUAAGGAGGCUCCCACCCACCUCUCCCAAGAGCAGACAUUAAACAUCUUUGUGCUUUGAAGAGAGUGAAU	0.425
GCUUUCCAAAGAAGGACCUAAAACACACCAAGAUUGUCUUCUACAGGAAUUGCUGGGCAGGUCUCCGACUAAAGGUCUUAUGAUGAAAAGGAAGAAACAAGCCCCCAACA	0.31
AAAGAAACUGCCUACAGACAUCAUCACAGCAGCCUCCUCACUUGGGUACUACCGUGUGGAAGCUGUGCAUAUGGUAUAUUUUAUUUGUCUUUGUAAAGCGUUAUGUUUUG	0.372
GGAUGUUUGGAGUAGAUACUGGUCUGUGAUUGGUGGAAUGGAGAACACACGUGUUGGUGCUUCUGGGUAGCACUGGUUUGCAUUAGUUUAUGUUUCCAUGCCAGAGUUUG	1.89
UCCUGUCUCAUGGCAGAAAAUUUUGAAGAUUAAAAAAUAAAAUAAUCAAAAUGUUUCCUCUUUCUAAGUGCGUCUUAACUCUUUCUUCAUUUAUACUGAGAGUUUCCAUG	1.47
